Measured values gathered from unrelated publications.
Numbers after ± are the reported error.

Compound = COc1c(C)c(OS(=O)(=O)c2ccccc2)c(C)c2c1C(=O)CC(c1ccccc1)O2 (stereo not drawn); cell line = KKU-M213; assay = cell growth or viability, SRB; setting = 72 h; IC50 = > 50 µM
Compound = C=C(F)C(=O)Nc1cnn2ccc(-c3ccc(C4CCCCC4)cc3)nc12; cell line = NCI-H226 (NF2-deficient); assay = cell growth, inhibitor; setting = 120 h; IC50 = 0.261 µM
Compound = Oc1c(/N=N/c2ccccn2)ccc2ccccc12; cell line = LDR; assay = cell viability, MTS; setting = 4 days; IC50 = 0.8 µM
Compound = C#CCN(CC(=O)O[C@H]1[C@H](C)O[C@@H](O[C@H]2[C@H](N(C)C)[C@@H](O)[C@H](O[C@H]3[C@@H](CC=O)C[C@@H](C)[C@@H](O[C@H]4CC[C@H](N(C)C)[C@@H](C)O4)/C=C/C=C/C[C@@H](C)OC(=O)C[C@@H](O)[C@@H]3OC)O[C@@H]2C)C[C@@]1(C)O)C(=O)c1ccc(C(C)(C)C)cc1; cell line = HGC-27; assay = cell growth or viability, CCK-8; setting = 72 h; IC50 = 0.53 µM
Compound = CC(C)N(C[C@H]1O[C@@H](n2cnc3c(N)ncnc32)[C@H](O)[C@@H]1O)C1CC2CN(Cc3ccc(S(C)(=O)=O)cc3)CC2C1 (stereo partly drawn); cell line = H460 R231Q; assay = cell proliferation, CCK-8; setting = 72 h; IC50 = 47.7 ± 1.72 µM
Compound = N=C(N/N=C/c1ncc[nH]1)N/N=C/c1ncc[nH]1; cell line = IMR-90; assay = cell growth or viability, crystal violet; setting = 72 h; IC50 = 180 µM
Compound = COc1cc(NC(=O)c2ccccc2Cl)ccc1C(=O)Nc1ccc(Cl)c(-c2nc3ccccc3[nH]2)c1; cell line = NIH3T3-Gli-Luc; assay = Hedgehog signalling, Gli-luciferase reporter; setting = with: Shh-conditioned medium; IC50 = 0.17 ± 0.06 µM
Compound = CC1=C/C(=N\N=C(/S)Nc2cccnc2)CC(C)(C)C1; cell line = HCC4017; assay = cell growth or viability, MTS; setting = 96 h; IC50 = > 50 µM
Compound = Cc1ccc(C(C)C)cc1.O=C(N=P(c1ccccc1)(c1ccccc1)c1ccccc1)c1ccccn1.[Cl-].[Cl][Ru+]; cell line = IMR-90; assay = cell growth or viability, resazurin; IC50 = 53.7 µM
